Experimental data from different studies.
Protocols differ between the studies behind these lines. Values joined by “and” are separate records of one study, mostly repeats; a detail may differ. Numbers after ± are the reported error.
SRC SH2 domain: Proto-oncogene tyrosine-protein kinase Src, SH2 domain (SRC, Homo sapiens, UniProt P12931)
UDP-3-O-acyl-N-acetylglucosamine deacetylase C40S: UDP-3-O-acyl-N-acetylglucosamine deacetylase (Pseudomonas aeruginosa, UniProt P47205, C40S)
VPS26A/VPS35/VPS29: VPS26A/VPS35/VPS29 (Homo sapiens, UniProt O75436+Q96QK1+Q9UBQ0)
CD274: Programmed cell death 1 ligand 1 (CD274, Homo sapiens, UniProt Q9NZQ7)

CSCC[C@H](NC(=O)[C@H](CC(C)C)NC(=O)[C@H](C)NC(=O)[C@H](CCCNC(=N)N)NC(=O)[C@H](Cc1ccc(OP(=O)(O)O)cc1)NC(=O)[C@H](Cc1ccccc1)NC(=O)[C@H](CC(N)=O)NC(=O)[C@H](CO)NC(=O)[C@H](CC(=O)O)NC(=O)[C@@H](NC(=O)[C@@H]1CCCN1C(=O)[C@H](CO)NC(=O)[C@@H]1CCCN1C(=O)[C@H](CC(C)C)NC(=O)c1ccc2c(c1)C(=O)OC21c2ccc(N(C)C)cc2Oc2cc(N(C)C)ccc21)[C@@H](C)O)C(=O)N[C@@H](CC(=O)O)C(=O)N[C@@H](CCC(=O)O)C(=O)N[C@@H](CCC(=O)O)C(=O)N[C@@H](CC(=O)O)C(=O)O — Kd (SRC SH2 domain; binding): 1.14 µM
c1cncc([C@@H]2CCCN2)c1 — Kd (Chrnd/Chrna1/Chrne (Mus musculus, UniProt P02716+P04756+P20782, G173K/S470W); resting state binding, agonist, single-channel kinetics): 0.33 µM
CC(=O)N[C@@H](CC(N)=O)C(=O)N[C@@H](CC(C)C)C(=O)NCC(=O)N[C@@H](CCCCN)C(=O)N[C@@H](Cc1c[nH]cn1)C(=O)N[C@@H](CCC(=O)O)C(=O)N[C@@H](CCCCN)C(=O)N[C@@H](Cc1ccccc1)C(=O)N[C@@H](CO)C(=O)N[C@@H](CCC(=O)O)C(=O)N[C@H](C(=O)N[C@@H](CC(C)C)C(=O)N[C@@H](CCCCN)C(=O)N[C@@H](CCCNC(=N)N)C(=O)N[C@@H](CC(C)C)C(=O)N[C@@H](CCCNC(=N)N)C(=O)N[C@@H](CC(C)C)C(=O)N[C@@H](CCC(N)=O)C(N)=O)C(C)C — Kd (Calmodulin-1 (CALM1, Homo sapiens, UniProt P0DP23); isothermal titration calorimetry; full-length calmodulin; single average binding constant, with: 1 mM CaCl2): 1.56 µM
O=[N+]([O-])c1ccc2c(N=Nc3ccc4ccccc4c3O)c(O)cc(S(=O)(=O)O)c2c1 — Kd (Diphosphomevalonate decarboxylase (Staphylococcus epidermidis, UniProt Q9FD73, W153F)): 0.2 ± 0.015 µM
O=C(NO)[C@H]1COC(c2ccc(OC(F)(F)F)c(Cl)c2)=N1 — Kd (UDP-3-O-acyl-N-acetylglucosamine deacetylase C40S; binding, thermal shift): 3.8 µM
O=C(O)C(S)c1ccccc1 (stereo not drawn) — Kd (di-zinc VIM-5 metallo-beta-lactamase; NMR): 0.17 µM
C[C@@H](O)[C@H](NC(=O)c1ccc(C#CC#Cc2ccccc2)cc1)C(=O)NO — Kd (UDP-3-O-acyl-N-acetylglucosamine deacetylase C40S; binding, thermal shift; pH 7.0, equimolar ZnCl2): 0.00835 µM
CSCC[C@H](NC(=O)[C@@H]1CCCN1C(=O)CNC(=O)c1ccc2c(c1)C(=O)OC21c2ccc(O)cc2Oc2cc(O)ccc21)C(=O)N[C@@H](CCC(N)=O)C(=O)N[C@@H](CO)C(=O)N[C@H](C(=O)N1CCC[C@H]1C(=O)N[C@@H](CC(C)C)C(=O)N[C@@H](CC(N)=O)C(=O)NCC(=O)O)[C@@H](C)OP(=O)(O)O — Kd (Serine/threonine-protein kinase PLK1, polo-box domain (PLK1, Homo sapiens, UniProt P53350)): 0.0095 ± 0.0004 µM
CSCC[C@H](NC(=O)CNC(=O)[C@H](Cc1ccccc1)NC(=O)[C@H](CC(=O)O)NC(=O)CNC(=O)c1ccc2c(c1)C(=O)OC21c2ccc(N(C)C)cc2Oc2cc(N(C)C)ccc21)C(=O)N[C@@H](CO)C(=O)N[C@@H](CCCNC(=N)N)C(=O)N[C@@H](CC(=O)O)C(=O)N[C@H](C(=O)N[C@@H](Cc1ccc(OP(=O)(O)O)cc1)C(=O)N[C@@H](CO)C(=O)N[C@H](C(=O)N[C@@H](CC(=O)O)C(=O)N[C@@H](Cc1ccc(O)cc1)C(=O)N[C@@H](Cc1ccc(O)cc1)C(=O)N[C@@H](CCCNC(=N)N)C(=O)N[C@H](C(=O)N[C@@H](CC(=O)O)C(=O)O)C(C)C)[C@@H](C)O)C(C)C — Kd (SRC SH2 domain; binding): 0.459 µM
NCCc1ccccc1 — Kd (SAR11_0271 Candidatus Pelagibacter; binding, ITC): 8 µM
C[N+](C)(C)C — Kd (Chrnd/Chrna1/Chrne (Mus musculus, UniProt P02716+P04756+P20782, G173S/S470W); binding, agonist, single-channel recording; binding site chain S side): 81 µM
CC[C@H](C)[C@H](NC(=O)[C@H](CC(=O)O)NC(=O)[C@@H](NC(=O)[C@H](CC(N)=O)NC(=O)[C@H](CC(=O)O)NC(=O)[C@H](CC(=O)O)NC(=O)[C@H](Cc1ccccc1)NC(=O)[C@H](CC(C)C)NC(=O)[C@@H](N)CC(N)=O)[C@@H](C)CC)C(=O)N[C@@H](Cc1ccccc1)C(=O)N[C@@H](C)C(=O)N[C@@H](CC(=O)O)C(=O)N[C@@H](CC(C)C)C(=O)N[C@H](C(=O)O)[C@@H](C)O — Kd (VPS26A/VPS35/VPS29; binding, ITC; pH 7.5, with: FAM21 peptides): 63.5 ± 8.7 µM
CC1(CNC(=O)[C@H](CN)NC(=O)c2ccc(-c3ccc(Br)cc3)cc2)NC(=O)NC1=O (stereo partly drawn) — Kd (UDP-3-O-acyl-N-acetylglucosamine deacetylase C40S; binding): > 100 µM
CC[C@H](C)[C@H](NC(=O)[C@H](Cc1ccc(OP(=O)(O)O)cc1)NC(=O)[C@H](CCC(=O)O)NC(=O)[C@@H]1CCCN1C(=O)[C@@H](NC(=O)[C@@H]1CCCN1C(=O)[C@H](CC(C)C)NC(=O)[C@H](Cc1ccccc1)NC(=O)[C@@H](NC(=O)[C@H](CC(=O)O)NC(=O)[C@H](CC(=O)O)NC(=O)c1ccc2c(c1)C(=O)OC21c2ccc(N(C)C)cc2Oc2cc(N(C)C)ccc21)[C@@H](C)O)C(C)C)C(=O)N[C@@H](CC(N)=O)C(=O)N[C@@H](CCC(N)=O)C(=O)N[C@@H](CO)C(=O)N[C@H](C(=O)N1CCC[C@H]1C(=O)N[C@@H](CCCCN)C(=O)N[C@@H](CC(=O)O)C(=O)O)C(C)C — Kd (SRC SH2 domain; binding): 1.79 µM
C[C@H](N)C(=O)N[C@@H](CCCNC(=N)N)C(=O)N[C@H](C(=O)N[C@@H](CCCC[N+](C)(C)C)C(=O)N[C@@H](CCC(N)=O)C(=O)N[C@H](C(=O)N[C@@H](C)C(=O)N[C@@H](CCCNC(=N)N)C(=O)N[C@@H](CCCCN)C(=O)N[C@@H](CO)C(=O)O)[C@@H](C)O)[C@@H](C)O — Kd (PHD finger protein ING2, PHD finger (ING2, Arabidopsis thaliana, UniProt B3H615); binding, isothermal titration calorimetry; pH 7.0, with: histone H3 peptide): 2.91 µM
CC(=O)N[C@@H](CC(C)C)C(=O)N[C@@H](CC(=O)O)C(=O)N1CCC[C@H]1C(=O)N1CCC[C@H]1C(=O)N[C@@H](CC(C)C)C(=O)N[C@@H](Cc1c[nH]cn1)C(=O)N[C@@H](CO)C(=O)N[C@H](C(=O)N[C@@H](C)C(N)=O)[C@@H](C)OP(=O)(O)O — Kd (Serine/threonine-protein kinase PLK1, polo-box domain (PLK1, Homo sapiens, UniProt P53350, Y417A/Y421A); isothermal titration calorimetry; Y417A/Y421A double mutant): 1.04 µM
CC[C@H](C)[C@@H]1NC(=O)[C@H](Cc2c[nH]c3ccccc23)NC(=O)[C@H](Cc2ccc(O)cc2)NC(=O)CSC[C@@H](C(N)=O)NC(=O)[C@H]([C@@H](C)O)NC(=O)[C@H](CO)NC(=O)[C@H](C(C)C)NC(=O)[C@H](Cc2ccc(O)cc2)NC(=O)[C@H](CCCNC(=N)N)NC(=O)[C@H](Cc2ccc(O)cc2)NC(=O)[C@H]([C@@H](C)O)NC(=O)[C@H]([C@@H](C)O)NC(=O)[C@H](Cc2c[nH]c3ccccc23)NC(=O)[C@H](CO)NC(=O)[C@H](CC(N)=O)NC(=O)[C@H](CO)NC1=O — Kd (VPS26A/VPS35/VPS29; binding): 0.273 ± 0.007 µM
O=C(O)CCCN1CC=C(c2ccccc2)CC1 — Kd (Ubiquitin carboxyl-terminal hydrolase 39, ZnF-UBD domain (Homo sapiens, UniProt Q53GS9)): > 1000 µM
CC[C@@H](C)[C@@H](NC(=O)[C@@H](Cc1ccc(O)cc1)NC(=O)[C@H]1CCCN1C(=O)[C@@H](CCCNC(=N)N)NC(=O)[C@H](N)Cc1c[nH]cn1)C(=O)N[C@H](C)C(=O)N[C@H](Cc1c[nH]cn1)C(=O)N[C@H](CCCNC(=N)N)C(=O)N[C@H](CCCCNC(=O)c1cccc(S(=O)(=O)F)c1)C(=O)N[C@H](Cc1ccc(O)cc1)C(=O)N[C@H](CO)C(=O)N[C@H](Cc1ccccc1)C(N)=O — Kd (CD274; microscale thermophoresis; 6 h, His-tagged protein): 2.4 ± 3.1 µM
CC[C@H](C)[C@H](NC(=O)[C@H](CC(=O)O)NC(=O)[C@H](C)NC(=O)[C@H](Cc1ccc(O)cc1)NC(=O)[C@H](CCCCN)NC(=O)c1ccc2c(c1)C(=O)OC21c2ccc(N(C)C)cc2Oc2cc(N(C)C)ccc21)C(=O)N[C@@H](CCC(=O)O)C(=O)N[C@@H](CO)C(=O)N[C@@H](CO)C(=O)N[C@@H](CC(N)=O)C(=O)N[C@@H](Cc1ccc(OP(=O)(O)O)cc1)C(=O)N[C@@H](CCSC)C(=O)N[C@@H](C)C(=O)N1CCC[C@H]1C(=O)N[C@@H](Cc1ccc(O)cc1)C(=O)N[C@@H](CC(=O)O)C(=O)N[C@@H](CC(N)=O)C(=O)N[C@@H](Cc1ccc(O)cc1)C(=O)N[C@@H](CC(=O)O)C(=O)O — Kd (Tensin-4, SH2 domain (Homo sapiens, UniProt Q8IZW8); binding): 0.063 µM
O=C(O)CNC(=O)c1cccnc1 — Kd (Ubiquitin carboxyl-terminal hydrolase 3, ZnF-UBD domain (USP3, Homo sapiens, UniProt Q9Y6I4)): 63.2 µM
N[C@@H](Cc1ccc(O)c(I)c1)C(=O)O — Kd (Iodotyrosine deiodinase (Haliscomenobacter hydrossis, UniProt F4KU78, R38Q); binding): 551 ± 21 µM
CC[C@H](C)[C@H](NC(=O)[C@H](Cc1c[nH]c2ccccc12)NC(=O)[C@H](Cc1ccccc1)NC(=O)[C@H](CCCCN)NC(=O)[C@H](CC(N)=O)NC(=O)[C@H](CC(C)C)NC(=O)[C@@H](NC(=O)[C@H](Cc1c[nH]cn1)NC(=O)[C@H](CC(=O)O)NC(=O)[C@H](CC(C)C)NC(=O)[C@H](Cc1ccccc1)NC(=O)[C@@H](NC(=O)[C@@H]1CCCN1C(=O)[C@@H](N)CCSC)[C@@H](C)CC)[C@@H](C)CC)C(=O)N[C@@H](CC(C)C)C(=O)N[C@@H](Cc1c[nH]cn1)C(=O)N[C@@H](Cc1ccc(O)cc1)C(=O)N[C@@H](C)C(N)=O — Kd (CD274; biolayer interferometry): 0.0265 µM and 0.0498 µM
CCCC1COC(Cn2cncn2)(c2ccc(Cl)cc2Cl)O1 (stereo not drawn) — Kd (Cytochrome P450 2A6 (CYP2A6, Homo sapiens, UniProt P11509); binding; 20 min, pH 7.4, purified protein, 2% DMSO): 25.1 µM
CCC1=C(C)C2=Cc3c(C)c(CCC(=O)O)c4[n]3[Ir-2]35([CH3])[n]6c(c(C)c(CC)c6=CC6=[N+]3C(=C4)C(CCC(=O)O)=C6C)=CC1=[N+]25 — Kd (Cytochrome P450 119 (cyp119, Sulfolobus acidocaldarius, UniProt Q55080, L155W/T213G/V254L/C317G); binding): 4.1 µM
CN1CCC[C@H]1c1cccnc1 — Kd (Chrnd/Chrna1/Chrne (Mus musculus, UniProt P02716+P04756+P20782, G173R)): 32 µM
CCCCCCCC(=O)OC[C@H](COP(=O)(O)O[C@@H]1[C@H](O)[C@H](OP(=O)(O)O)[C@@H](O)[C@H](O)[C@H]1O)OC(=O)CCCCCCC — Kd (PP2C family protein phosphatase (Vibrio splendidus, UniProt A0ABV4LX41, N199A)): 0.77 ± 0.063 µM
